Measured values pooled from the literature.
Each line is one published result; not all experiments were run side by side. “And” joins repeats or separate records; there may be more than shown. ± marks the error that the study gave.
Cell line: Caco-2

With `C#Cc1cccc(Nc2ncnc3cc(OC)c(OCCCN4CCOCC4)cc23)c1` the efflux ratio was 2.51 (10 µM, 90 min; reference: B-A over A-B).
`Cc1ncc([N+](=O)[O-])n1CCOCc1nnc(SCC(=O)c2ccc([N+](=O)[O-])cc2)o1` has a viability of 95.7% (cell growth or viability, MTT; 6 µM, 48 h).
`COC(=O)c1ccc2c(c1)NC(=O)/C2=C(\Nc1ccc2c(c1)CCN2C(=O)CN1CCOCC1)c1ccccc1` has an efflux ratio of 2.64 (2 µM, 120 min, 1% DMSO).
For `CCCCn1cc(C(=O)O)c(=O)c2cc(F)c3[nH]nnc3c21`, the IC50 was 441 µM (cell growth or viability, SRB).
The Papp A-to-B of `COC(=O)NC(C(=O)NN(Cc1ccc(Br)cc1)CC(O)(Cc1ccccc1)C(=O)NCc1ccccc1)C(C)(C)C` (stereo not drawn) is reported as 90.9 ± 0.4 ×10⁻⁶ cm/s (pH 7.4, 1% BSA in receiver).
`COc1cc(-c2cncc(-c3ccc(N4CCN(C)CC4)cc3)c2C)cc(OC)c1OC` gave an efflux ratio of 0.9 (5 µM, 120 min, pH 7.4; reference: B-A over A-B).
`COCCNC(=O)C(NC(=O)C(O)(Cc1ccccc1)CN(Cc1ccc(Br)cc1)NC(=O)C(NC(=O)OC)C(C)(C)C)C(C)C` (stereo not drawn) gave a Papp B-to-A of 312 ± 89.7 ×10⁻⁶ cm/s (pH 7.4, 1% BSA in receiver).
For `CCN(CC)CC#CCNc1ccnc2cc(Cl)ccc12`, the apparent permeability was 11 ×10⁻⁶ cm/s (10 µM, 90 min, pH 7.4; basolateral to apical).
`CC1(C)CCN(Cc2ccc(C(=O)NC[C@]3(O)CCCN(c4cc(NCc5ccccc5)ncn4)C3)c(O)c2)CC1` has a mass recovery of 82.4% (10 µM, 90 min, apical to basolateral).
With `COC(=O)NC(C(=O)NN(Cc1ccc(C=Cc2ccccc2)cc1)CC(O)(Cc1ccccc1)C(=O)NC1c2ccccc2CC1O)C(C)(C)C` (stereo not drawn) the Papp A-to-B was 8.3 ± 1.3 ×10⁻⁶ cm/s (pH 7.4, 1% BSA in receiver).
`NC1=N[N+](=Cc2c3ccccc3cc3ccccc23)[Ga-3]23([S]1)([S]C(N)=N[N+]2=Cc1c2ccccc2cc2ccccc12)[S]C(N)=N[N+]3=Cc1c2ccccc2cc2ccccc12` has a selectivity ratio of 12 and 11.8 (72 h; reference: IC50 CCD-18Co over Caco-2).
With `COC(=O)NC(C(=O)NN(Cc1ccc(Br)cc1)CC(O)(Cc1ccccc1)C(=O)NC1c2ccccc2CC1O)C(C)(C)C` (stereo not drawn) the Papp B-to-A was 246 ± 3.9 ×10⁻⁶ cm/s (pH 7.4, 1% BSA in receiver).
`COc1ccc(C(=O)CSc2nnc(COCCn3c([N+](=O)[O-])cnc3C)o2)cc1F` gave a viability of 109% (cell growth or viability, MTT; 6 µM, 48 h).
For `CNC(=O)C(NC(=O)C(O)(Cc1ccccc1)CN(Cc1ccc(Br)cc1)NC(=O)C(NC(=O)OC)C(C)(C)C)C(C)(C)C` (stereo not drawn), the Papp B-to-A was 70 ± 12.3 ×10⁻⁶ cm/s (pH 7.4, 1% BSA in receiver).
`CC(=NNC(=N)N)c1nnn(-c2ccc(C#CC3(O)CCCCC3)cc2)c1C` has an IC50 of 22 µg/mL (cell growth or viability, MTT).
The efflux ratio of `CCCCC[C@@H]1OC(=O)[C@@H](C)NC(=O)[C@H](CCCCC)OC(=O)[C@@H](C)NC(=O)[C@H](CCCCC)OC(=O)[C@@H](C)NC(=O)[C@H](CCCCC)OC(=O)[C@@H](C)NC1=O` is reported as 0.482 (10 µM; reference: B-A over A-B).
`C=C(C)C(=O)Nc1ccc(-c2c(-c3ccc(Oc4nccc(C)n4)cc3)c3c(N)ncnc3n2C)cc1` gave an efflux ratio of 1.3 (reference: B-A over A-B).
The viability of `Cc1ncc([N+](=O)[O-])n1CCOCc1nnc(SCC(=O)c2ccc(Cl)cc2)o1` is reported as 91.8% (cell growth or viability, MTT; 6 µM, 48 h).
`COC(=O)NC(C(=O)NN(Cc1ccc(Br)cc1)CC(O)(Cc1ccccc1)C(=O)NC1CCOC1)C(C)(C)C` (stereo not drawn) gave a Papp B-to-A of 58 ± 7.5 ×10⁻⁶ cm/s (pH 7.4, 1% BSA in receiver).
With `CC[C@H](C)[C@H](NC(=O)CN)C(=O)N[C@H](C(=O)N[C@@H](CC(N)=O)C(=O)N[C@H](C(=O)N[C@@H](CC(C)C)C(=O)N[C@@H](CCC(N)=O)C(=O)N[C@@H](CCCCN)C(=O)N[C@@H](Cc1ccc(O)cc1)C(=O)N[C@@H](Cc1ccc(O)cc1)C(=O)N[C@H]1CSSC[C@@H]2NC(=O)[C@H](CCCCN)NC(=O)[C@H](CCCNC(=N)N)NC(=O)CNC(=O)[C@H](CCCNC(=N)N)NC(=O)[C@H]([C@@H](C)O)NC(=O)[C@H](CO)NC(=O)[C@@H]3CSSC[C@H](NC(=O)[C@H](CCCNC(=N)N)NC(=O)CNC(=O)CNC(=O)[C@H](CCCNC(=N)N)NC(=O)[C@H](C(C)C)NC(=O)[C@H](CCCNC(=N)N)NC1=O)C(=O)N[C@@H](C)C(=O)N[C@@H](C(C)C)C(=O)N[C@@H](CC(C)C)C(=O)N[C@@H](CO)C(=O)N[C@@H](CSSC[C@@H](C(=O)N[C@@H](CCCNC(=N)N)C(=O)N[C@@H](CCCNC(=N)N)C(=O)N[C@@H](CCCCN)C(=O)N[C@@H](CCCCN)C(=O)O)NC2=O)C(=O)N[C@@H](CC(C)C)C(=O)N1CCC[C@H]1C(=O)N[C@@H](CCCCN)C(=O)N[C@@H](CCC(=O)O)C(=O)N[C@@H](CCC(=O)O)C(=O)N[C@@H](CCC(N)=O)C(=O)N[C@@H]([C@@H](C)CC)C(=O)NCC(=O)N[C@@H](CCCCN)C(=O)N3)[C@@H](C)O)[C@@H](C)CC` the viability reduction was ~25% (MTT; up to 25.0 µM, 48 and 72 h).
For `CCNCC#CCNc1ccnc2cc(Cl)ccc12`, the apparent permeability was 14 ×10⁻⁶ cm/s (10 µM, 90 min, pH 7.4; apical to basolateral).
`C[n+]1cc2cc3cc(ccc31)NC(=O)CCCCC(=O)Nc1ccc3c(c1)cc(c[n+]3C)C(=O)NCc1cccc(c1)CNC2=O` has a Papp A-B of 0.1 ×10⁻⁶ cm/s (pH 6.5, intrinsic permeability, with: transporter inhibitor cocktail).
With `COC(=O)NC(C(=O)NN(Cc1ccc(Br)cc1)CC(O)(Cc1ccccc1)C(=O)Nc1cccc(O)c1C)C(C)(C)C` (stereo not drawn) the Papp A-to-B was 188 ± 17.4 ×10⁻⁶ cm/s (pH 7.4, 1% BSA in receiver).
With `CCCCn1cc(C(=O)O)c(=O)c2cc(F)c(N)c([N+](=O)[O-])c21` the IC50 was 468 µM (cell growth or viability, SRB).

Excerpt of the above:
`C[n+]1cc2cc3cc(ccc31)NC(=O)CCCCC(=O)Nc1ccc3c(c1)cc(c[n+]3C)C(=O)NCc1cccc(c1)CNC2=O` has a Papp A-B of 0.1 ×10⁻⁶ cm/s (pH 6.5, intrinsic permeability, with: transporter inhibitor cocktail).
With `COC(=O)NC(C(=O)NN(Cc1ccc(Br)cc1)CC(O)(Cc1ccccc1)C(=O)Nc1cccc(O)c1C)C(C)(C)C` (stereo not drawn) the Papp A-to-B was 188 ± 17.4 ×10⁻⁶ cm/s (pH 7.4, 1% BSA in receiver).
With `CCCCn1cc(C(=O)O)c(=O)c2cc(F)c(N)c([N+](=O)[O-])c21` the IC50 was 468 µM (cell growth or viability, SRB).
